# Results of several laboratories.
Compound,cell line,test,setting,how to read,quantity,value
N[C@@H](Cc1cc(I)c(Oc2cc(I)c(O)c(I)c2)c(I)c1)C(=O)O,human iPSC-derived cardiomyocytes,"MyBP-C/MYH ratio, plate-normalised SD score","concentration not given, primary screen",direction not given,activity score,-3.2
Cn1cc(Nc2nccc(-c3ccc4c(c3)CN(C3COC3)CC[C@H]4NC(=O)c3cn(C(C)(C)C)nn3)n2)cn1,mouse splenic B cells,measured: Integrin signalling,"30 mg/kg, IgD-activated in vivo","baseline: vehicle, direction not given",pathway activation z-score,3.27
CCn1cc(-c2cc(Cn3ccoc3=N)cc3c2CCN([C@@H](C)c2cc(OC)ccn2)C3=O)c(C(F)(F)F)n1,LS-411N,"cell growth, inhibitor",120 h,,EC50,0.00185 µM
O=C(/C=C/C=C/C=C/C1CCCCC1)NC1=C[C@@](O)(/C=C/C=C/C=C/C(=O)NC2=C(O)CCC2=O)[C@@H]2O[C@@H]2C1=O,COLO-679,"cell growth, CellTiter-Glo",78 h,,GI50,18.1 µM
CCCCC(CC)COC(=O)c1ccccc1O (stereo not drawn),human iPSC-derived cardiomyocytes,"MyBP-C/MYH ratio, plate-normalised SD score","concentration not given, primary screen",direction not given,activity score,4.4
CCn1cc(-c2cc(Cn3ccnc3)cc3c2CCN([C@H](c2cc(OC)ccn2)C2CC2)C3=O)c(C(F)(F)F)n1,REH,"cell growth, inhibitor",120 h,,EC50,> 30 µM
Cn1cc(-c2ccc(-c3cncc(Cl)c3N3CCC4(CCNC4=O)CC3)cc2)cn1,COLO 205,"gene expression, microarray, measured: SAT1 (SSAT) mRNA","concentration not given, 6 h",baseline: untreated cells,log2 fold change,2.74
COc1cnc2cccc(N3CCc4c(cc(Cn5ccnc5C)cc4-c4cn(C)nc4C(F)(F)F)C3=O)c2c1,HT,cell growth,120 h,,EC50,> 30 µM
CS(=O)(=O)c1ccc([C@@H](O)[C@@H](CF)NC(=O)C(Cl)Cl)cc1,human iPSC-derived cardiomyocytes,"MyBP-C/MYH ratio, plate-normalised SD score","concentration not given, primary screen",direction not given,activity score,-3.5

# A few entries again:
Compound,cell line,test,setting,how to read,quantity,value
CCn1cc(-c2cc(Cn3ccnc3)cc3c2CCN([C@H](c2cc(OC)ccn2)C2CC2)C3=O)c(C(F)(F)F)n1,REH,"cell growth, inhibitor",120 h,,EC50,> 30 µM
Cn1cc(-c2ccc(-c3cncc(Cl)c3N3CCC4(CCNC4=O)CC3)cc2)cn1,COLO 205,"gene expression, microarray, measured: SAT1 (SSAT) mRNA","concentration not given, 6 h",baseline: untreated cells,log2 fold change,2.74
